Published values from different studies.
Protocols differ between the studies behind these lines. ± marks the error that the study gave.

The CC50 of CN1CCN(c2cnc3c(cc(C(=O)NCc4ccc(Cl)cc4)c(=O)n3CC(=O)N3CC(C)(F)C3)n2)C1=O is reported as over 40 µM (MRC-5; cell viability, CCK-8).
COC(=O)N[C@H](C(=O)N1CCC[C@H]1c1nc(-c2ccc(-c3ccc(-c4c[nH]c([C@@H]5CCCN5C(=O)[C@@H](NC(=O)OC)C(C)C)n4)cc3)cc2)c[nH]1)C(C)C gave a CC50 of at least 17 µM (MDBK, Vero, MT-2, MRC5, Huh-7; cytotoxicity; up to five days).
For CCc1cc(F)c(Cc2cnc(Nc3ccc(C#N)c(Cl)c3)o2)c(F)c1, the CC50 was 10.2 µM (MT2 cells; cell growth).
For Cc1cn(CC(c2cn(C)c3ccccc23)c2cn(C)c3ccccc23)nn1, the CC50 was over 20 µM (human primary fibroblasts; viability, MTS; 24 h).
The CC50 of N#Cc1ccc(Nc2nc(N)cc(Oc3ccc(-c4ccccc4C#N)cc3F)n2)cc1 is reported as over 256 µM (MT4 uninfected).
With CC1(F)CN(C(=O)Cn2c(=O)c(C(=O)NCc3ccc(Cl)cc3)cc3nc(N4CCN(CC(=O)O)C4=O)cnc32)C1 the CC50 was over 40 µM (MRC-5; cell viability, CCK-8).
N#Cc1ccc(Nc2nc(N)cc(Oc3c(F)cc(-c4ccccc4)cc3F)n2)cc1 has a CC50 of 21.5 ± 5.49 µM (MT4 uninfected).
For CCOC(=O)c1cn(CC(c2cn(C)c3ccc(C)cc23)c2cn(C)c3ccc(C)cc23)c(C)c1C(=O)OC, the CC50 was over 20 µM (human primary fibroblasts; viability, MTS; 24 h).
COc1ccc2cc3[n+](cc2c1OC)CCc1cc2c(cc1-3)OCO2 has a CC50 of 91.4 µM (THP-1; 24 h).
The CC50 of COC(=O)c1c(C)ncn1CC(c1cn(C)c2ccccc12)c1cn(C)c2ccccc12 is reported as over 20 µM (human primary fibroblasts; viability, MTS; 24 h).
N#Cc1ccc(Nc2nc(N)cc(Oc3ccc(-c4ccccc4F)cc3)n2)cc1 has a CC50 of 6.51 ± 1.64 µM (MT4 uninfected).

Repeated from above:
N#Cc1ccc(Nc2nc(N)cc(Oc3ccc(-c4ccccc4F)cc3)n2)cc1 has a CC50 of 6.51 ± 1.64 µM (MT4 uninfected).
The CC50 of COC(=O)c1c(C)ncn1CC(c1cn(C)c2ccccc12)c1cn(C)c2ccccc12 is reported as over 20 µM (human primary fibroblasts; viability, MTS; 24 h).
